# Assay results collected from several papers.
# Lines come from different studies, so protocols differ.
# Target: Interferon-induced, double-stranded RNA-activated protein kinase (EIF2AK2, Homo sapiens, UniProt P19525)
# Sequence of UniProt P19525 (whole entry, looked up): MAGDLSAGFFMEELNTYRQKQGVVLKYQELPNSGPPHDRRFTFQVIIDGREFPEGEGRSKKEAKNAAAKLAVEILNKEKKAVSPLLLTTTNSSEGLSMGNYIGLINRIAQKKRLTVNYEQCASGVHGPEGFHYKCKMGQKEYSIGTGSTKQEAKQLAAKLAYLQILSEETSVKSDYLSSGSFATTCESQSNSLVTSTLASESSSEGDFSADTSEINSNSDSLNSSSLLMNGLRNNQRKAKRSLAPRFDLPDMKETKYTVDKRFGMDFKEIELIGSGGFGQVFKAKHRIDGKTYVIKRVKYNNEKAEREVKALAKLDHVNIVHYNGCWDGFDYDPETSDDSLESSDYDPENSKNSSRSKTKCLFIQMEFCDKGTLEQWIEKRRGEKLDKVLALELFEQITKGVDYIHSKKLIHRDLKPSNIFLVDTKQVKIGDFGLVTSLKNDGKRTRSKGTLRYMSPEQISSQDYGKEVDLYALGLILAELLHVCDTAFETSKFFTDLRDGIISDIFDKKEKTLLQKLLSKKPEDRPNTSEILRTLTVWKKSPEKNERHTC
SMILES,test,test system,setting,scale,quantity,value
C=CC(=O)N1CCC[C@@H](n2nc(-c3ccc(Oc4ccccc4)cc3)c3c(N)ncnc32)C1,,,0.1 µM,,remaining activity,166%
O=C(NC1CCC1)c1ccc2nc(-c3cccc(NS(=O)(=O)NCCN4CCCCC4)c3)cn2c1,enzyme activity,,10 µM,,remaining activity,100%
C=CC(=O)N1CCC(COCC(=O)N2CCN(c3nc(-c4cnc(N)nc4C(F)F)nc(N4CCOC[C@@H]4C)n3)CC2)CC1,KINOMEscan,,1 µM,relative to: DMSO control,remaining binding,100%
C=CC(=O)N1CCC(C(=O)NCC(=O)N2CCN(c3nc(-c4cnc(N)nc4C(F)F)nc(N4CCOCC4)n3)CC2)CC1,KINOMEscan,,1 µM,,remaining binding,100%
C1=C/COCc2cc(ccc2OCCN2CCCC2)Nc2nccc(n2)-c2cccc(c2)COC/1,,,"concentration not given, kinase construct PRKR",relative to: control,binding,90%
CNc1ncc2c(/C=C/C(=O)N3CCC(OC)CC3)nn(Cc3cccc(C(F)(F)F)c3)c2n1,"kinase activity, inhibitor",,1 µM,relative to: untreated control,remaining activity,118%
C[C@@H](c1ccc(-n2cnc3c(N)ncnc32)cc1)N1CCc2nn(C)c(Cc3ccccc3)c2C1=O,KINOMEscan,,0.1 µM,relative to: DMSO control,remaining binding,90%
CCN1CCN(Cc2ccc(NC(=O)c3ccc(C)c(/C=C/c4cnc5[nH]ccc5c4OC)c3)cc2C(F)(F)F)CC1,,A-375,concentration not given,,inhibition,-12%

# Repeated from above:
SMILES,test,test system,setting,scale,quantity,value
CCN1CCN(Cc2ccc(NC(=O)c3ccc(C)c(/C=C/c4cnc5[nH]ccc5c4OC)c3)cc2C(F)(F)F)CC1,,A-375,concentration not given,,inhibition,-12%
